Results collected from several papers.
Lines come from different studies, so protocols differ. Numbers after ± are the reported error.

`Cc1ccc(CNC(=O)Cc2ccc(-c3ccc(OCCN4CCOCC4)cc3)cn2)cc1` gave an unbound fraction of 0.065 (human, plasma).
`O=[11C](N1CCC(CNS(=O)(=O)c2ccc(Cl)cc2)CC1)n1cncn1` gave a radioactivity uptake of 0.34 SUV (PET; Sprague-Dawley rat, striatum; intravenous, dose not given, baseline).
For `Cc1ccc(OCC(=O)N(Cc2cccs2)c2ccn[nH]2)cc1`, the AUC(0-t) was 119 ng·h/mL (male beagle dog, plasma; oral, 10 mg/kg, single dose).
The blood concentration of `Cn1cc2cc1C(=O)NC[C@H](N)CC(=O)Nc1cc(n(C)c1)C(=O)Nc1cc(n(C)c1)C(=O)Nc1cc(n(C)c1)C(=O)Nc1cc(n(C)c1)C(=O)NC[C@H](N)CC(=O)Nc1cn(C)c(n1)C(=O)Nc1cn(C)c(n1)C(=O)Nc1cc(n(C)c1)C(=O)N2` is reported as roughly 1200 nM (C57BL/6 mice, blood; intraperitoneal, 120 nmol/animal, 1.5 h, corrected for extraction efficiency).
`CC(C)(Sc1cc[n+]([O-])cc1-c1ccc(C#N)c2ccccc12)C(=O)OC1OC(C(=O)O)C(O)C(O)C1O` (stereo not drawn) has a terminal half-life of 23.2 h (plasma; oral, 15 mg, moderate renal impairment, fasted).
For `Oc1ccc2ccccc2c1/N=N/c1ccc(/N=N/c2ccccc2)cc1`, “absorption rate constant” read 0.437 h⁻¹ (Sprague-Dawley rats both sexes, whole blood; oral, 50 mg/kg).
For `CCC/C(=C\C1=C(OC)C(=O)c2ccccc2C1=O)C(=O)NOC`, the CLint was 18 mL/min/kg (mouse liver S9; 1 µM, phase II UGT conditions).
`O=C(c1ccccc1)N1C(c2ccc(OCC3CCN(CCCF)C3)cc2)c2ccc(O)cc2CC12CC2` (stereo not drawn) has a fu of 0.0154 (plasma protein binding; human plasma).
For `CC(=O)N[C@H](CC(=O)O)C(=O)N[C@H](Cc1c[nH]c2ccccc12)C(=O)N[C@H](Cc1ccccc1)C(=O)N[C@H](CCCCN)C(=O)N[C@H](C)C(=O)N[C@H](Cc1ccccc1)C(=O)N[C@H](Cc1ccc(O)cc1)C(=O)N[C@H](CC(=O)O)C(=O)N[C@H](CCCCN)C(=O)N[C@@H](C(=O)N[C@H](C)C(=O)N[C@H](CCC(=O)O)C(=O)N[C@H](CCCCN)C(=O)N[C@H](Cc1ccccc1)C(=O)N[C@H](CCCCN)C(=O)N[C@H](CCC(=O)O)C(=O)N[C@H](C)C(=O)N[C@H](Cc1ccccc1)C(N)=O)C(C)C`, the AUC(0-t) was 7 ng·h/mL (statin-treated high-risk CHD women, plasma; oral, 300 mg daily, day 1, 0 to 2 h, mean, undetectable set to 0).
`CC(C)(O)c1ncc([S@](N)(=O)=NC(=O)Nc2c3c(cc4c2CCC4)CCC3)s1` has an AUC(0-last)/dose of 1040 ng·h/mL/mg (healthy human, fasted; oral, 3 mg single dose, capsule formulation).
`O=C([O-])c1cccc(CN(CCN(Cc2cn(Cc3ccccc3)nn2)Cc2cccc(C(=O)[O-])n2)Cc2cn(Cc3ccccc3)nn2)n1.[64Cu+2]`: “radiometal bound to chelator” 98.3% (human serum; 20 h, 37 °C, with: 64Cu).
For `N=C(N)NCCC[C@@H]1NC(=O)[C@H](Cc2c[nH]c3ccccc23)NC(=O)[C@@H](CC2CCCCC2)NC(=O)[C@@H]2CCCN2C(=O)[C@@H](NC(=O)CCc2ccccc2)CCCNC1=O`, “apparent peripheral volume (V2/F)” read 0.2 µg/(ng/g) (C57BL/6J mice, spinal cord; intravenous, 1 mg/kg, two-compartment model).
`CC(=O)[CH](C(C)=O)[Pt-2]1([S+](C)C)[O]C(C)=CC(C)=[O+]1` (stereo not drawn) gave an AUC(0-24 h) of 868000 ng·h/mL (item: platinum; rat, plasma; intravenous, dose not given).
For `O=c1nc(NO)ccn1[C@@H]1O[C@H](CO)[C@@H](O)[C@H]1O`, the protein level was 1.5 fold (Western blot, item: CYP1A2; rat, arthritis model, liver; oral, 80 mg/kg twice daily, 5 days; baseline: control group).
With `C=C(c1ncc(C(=O)O)cn1)c1cc2c(cc1C)C(C)(C)CCC2(C)C` the HDL level was 30 ± 10.8 mg/dL (Sprague-Dawley rat, male, plasma; oral, 100 mg/kg, 12 h, sesame oil vehicle).
`COc1cc(NC(C)=O)c2c(c1O)-c1c(OC)c(OC)cc3c1C(C2)N(C)CC3` (stereo not drawn) has a remaining compound of 91.9 ± 1.1% (rat, processed plasma samples; 50 µg/mL, 24 h, room temperature, post-preparative storage).
With `OCc1cn(Cc2ccc(-c3noc(-c4ccc(OCC[18F])c(C(F)(F)F)c4)n3)cc2)nn1` the tracer uptake was 1.65 %ID/g (rat, heart; intravenous, 5 min).
For `CCCC[C@H](NC(=O)CNC(=O)CNC(=O)CN1CCN(CC(=O)O)CCN(CC(=O)O)CC1)C(=O)N[C@H]1CC(=O)NCCCC[C@@H](C(N)=O)NC(=O)[C@H](Cc2c[nH]c3ccccc23)NC(=O)[C@H](CCCNC(=N)N)NC(=O)[C@@H](Cc2ccccc2)NC(=O)[C@H](Cc2c[nH]cn2)NC1=O` [copper-64 labelled], the uptake ratio was 5.74 (female C57 mouse, B16/F1 melanoma; intravenous, 0.037 MBq, 24 h; baseline: tumour over kidneys).
The compound recovered of `CCc1noc(CC)c1C(=O)O[C@H]1C(C)=C[C@]23C(=O)[C@@H](C=C(CO)[C@@H](O)[C@]12O)[C@H]1[C@@H](C[C@H]3C)C1(C)C` is reported as no less than 95% (aqueous buffer; 16 h, pH 7.4, room temperature).
`Cc1[nH]nc2c1N=C(c1ccccc1Cl)c1cnc(N(CCO)CCO)cc1N2` has a urinary excretion of 0.19 %Dose (human male, urine; oral, 10 mg, 0-72 h).
`O=C(O)C1CN(Cc2ccc(-c3noc(-c4ccc(OCC[18F])c(C(F)(F)F)c4)n3)cc2)C1` gave a liver uptake of 24.4 %ID/g (biodistribution; C57BL/6 mouse, LPS-treated, liver; 2 h).
`COc1ccc(/C=C/C2=[N+]3C(=C(CO)c4c(C)cc(/C=C/c5ccc(OC)cc5)n4[B-]3(F)F)C(C)=C2)cc1` — result for “luminescence quantum yield”: 10 ± 2% (acetonitrile; room temperature).
`CC(C)[C@H](NC(=O)CNC(=O)[C@H](CCC(N)=O)NC(=O)[C@H](C)N)C(=O)O` has an AUC(0-inf) of 572 ng·h/mL (LC-MS/MS; human, plasma; intravenous, 30 mg/kg three times daily, day 3, first dose, 10 min infusion, geometric mean).
For `Cc1ccc(-c2ccc(-c3cc4sccc4o3)cn2)nc1`, “fluorescence quantum yield” read 0.66 (EtOH; with: quinine bisulfate reference).
`Cc1ccc(/N=N/c2c(O)ccc3ccccc23)c(C)c1` gave a measured concentration of 5.25 µg/L (rat whole blood QC samples; 5.0 µg/L, 8 h, room temperature, short-term stability).
The HDL level of `C=C(c1ccc(C(=O)O)c(F)c1)c1cc2c(cc1C)C(C)(C)C=CC2(C)C` is reported as 39 ± 3.2 mg/dL (Sprague-Dawley rat, male, plasma; oral, 100 mg/kg, 12 h, sesame oil vehicle).
`CO[C@H]1/C=C/O[C@@]2(C)Oc3c(C)c(O)c4c(c3C2=O)C2=NC3(CCN(CC(C)C)CC3)NC2=C(NC(=O)/C(C)=C\C=C\[C@H](C)[C@H](O)[C@@H](C)[C@@H](O)[C@@H](C)[C@H](OC(=O)c2cccnc2)[C@@H]1C)C4=O`: “fAUC/MIC fold higher” 128 fold (CD-1 mice; oral, 10 mg/kg; baseline: rifabutin).
`C[C@H]1CO[C@@H]2Cn3cc(C(=O)NCc4ccc(F)cc4F)c(=O)c(O[C@@H]4O[C@H](C(=O)O)[C@@H](O)[C@H](O)[C@H]4O)c3C(=O)N12` has a plasma concentration of 55.1 ± 76.6 ng/mL (LC-MS/MS; human, UGT1A9 wild-type, plasma; intramuscular, dose not given, 1 weeks after first injection).
With `C=CC(=O)Nc1cc(Nc2nccc(-c3cn(C4CC4)c4ccccc34)n2)c(OC)cc1NC` the plasma concentration was 26.7 ng/g (radiolabelled metabolite profiling; human male, plasma; oral, 110 mg, 2 h).
With `C1=C(c2cc3c(Nc4ccc5scnc5c4)ncnc3s2)CCSC1` the concentration was 8.48 ng/mL (BALB/c mouse, plasma; oral, 10 mg/kg, 30 min).
With `O=C([O-])CN1CCN(CC(=O)[O-])CCN(CC(=O)NC[C@H]2CC[C@H](C(=O)N[C@H](Cc3cnc4ccccc4c3)C(=O)NCCCC[C@H](NC(=O)N[C@@H](CCC(=O)O)C(=O)O)C(=O)O)CC2)CCN(CC(=O)[O-])CC1.[64Cu+2]` the absorbed dose was 0.0325 mGy/MBq (PET/CT dosimetry OLINDA/EXM; healthy volunteers, pancreas; up to 24 h post-injection).
For `[11CH3]c1ccc2nc(C3CCC3)n(-c3ccc4[nH]ncc4c3)c2n1`, the absorbed dose was 2.5 µSv/MBq (extrapolated from mouse biodistribution; standard human, red marrow).
`CCCC[C@@H]1NC(=O)[C@@H](NC(=O)[C@H](CCC(=O)O)NC(=O)CNC(=O)CN2CCN(CC(=O)O)CCN(CC(=O)O)CCN(CC(=O)O)CC2)CCCCNC(=O)C[C@@H](C(N)=O)NC(=O)[C@H](C(C)C)NC(=O)[C@@H]2CCCN2C(=O)[C@H](CCCNC(=N)N)NC(=O)CNC(=O)[C@H](Cc2c[nH]c3ccccc23)NC(=O)[C@H](CCCNC(=N)N)NC(=O)[C@@H](Cc2ccccc2)NC(=O)[C@H](Cc2c[nH]cn2)NC(=O)[C@H](CCC(=O)O)NC1=O` [gallium-67 labelled] gave a tissue ratio of 40.6 (C57 mice, B16/F1 flank melanoma; intravenous, 4 h; baseline: tumour over skin).
`O=C(O)C1OC(OC2C(COS(=O)(=O)O)OC(OC3C(C(=O)O)OC(OC4C(COS(=O)(=O)O)OC(OC5C(C(=O)O)OC(OC6C(COS(=O)(=O)O)OC(OC7C(C(=O)O)OC(OC8C(COS(=O)(=O)O)OC(OC9C(C(=O)O)OC(OC%10C(COS(=O)(=O)O)OC(OC%11C(C(=O)O)OC(Oc%12ccc([N+](=O)[O-])cc%12)C(O)C%11O)C(NS(=O)(=O)O)C%10O)C(OS(=O)(=O)O)C9O)C(NS(=O)(=O)O)C8O)C(OS(=O)(=O)O)C7O)C(NS(=O)(=O)O)C6O)C(OS(=O)(=O)O)C5O)C(NS(=O)(=O)O)C4O)C(OS(=O)(=O)O)C3O)C(NS(=O)(=O)O)C2OS(=O)(=O)O)C(O)C(O)C1OC1OC(COS(=O)(=O)O)C(O)C(O)C1NS(=O)(=O)O` (stereo not drawn) gave an albumin of 3.62 ± 0.08 g/dL (rats, serum; intravenous, 3600 µg/kg/day for 7 days, day 8).
The HPLC retention of `CC(C)C[C@H](NC(=O)[C@H](CC(C)C)NC(=O)[C@@H](NC(=O)[C@H](Cc1ccccc1)NC(=O)[C@@H](Cc1c[nH]c2ccccc12)NC(=O)[C@@H](N)CCCCN)[C@@H](c1ccccc1)c1c[nH]c2ccccc12)C(N)=O` is reported as 54.4 %B (RP-HPLC Jupiter Proteo; acetonitrile/water TFA gradient).
For `COc1ccc(NC(=O)[C@H](CCCCN)NC(=O)c2cc(NC(=O)[C@H](CCCCN)NC(=O)c3cc(NC(=O)[C@H](CCCCN)NC(=O)c4cc(NC(=O)[C@@H](N)CCCCN)ccc4OC)ccc3OC)ccc2OC)cc1C(N)=O`, “log association constant” read 19.3 (UV-vis λmax shift; TBS; pH 7.4, monomer-hexamer, K in M^-5).
`NC[C@@H](C(=O)Nc1ccc(-c2cn[nH]c2)cc1)c1ccccc1`: “total eye irritation score” 1 (OECD 405 eye irritation; New Zealand White rabbit, eye; topical, 0.1%, 49 h (day 3); direction not given).
`Cc1cc2c(c(=O)o1)C=C1CCC(C(C)CNCc3ccc(O)cc3)CC1O2` (stereo not drawn) gave an AUC of 11300 ng·h/mL (mouse, plasma; oral, dose not given).
With `Clc1ccc2c(c1)nc(N1CC3CNCC3C1)n2Cc1ccccc1` (stereo not drawn) the compound remaining was 85.9% (metabolic stability; mouse, liver microsomes; 0.1 µM, 30 min, pH 7.4).
`NS(=O)(=O)c1ccc(N2N=C(C(F)(F)F)CC2c2ccc(F)cc2F)cc1` (stereo not drawn) gave an AUC(0-inf) of 47000 ng·h/mL (beagle dog, plasma; oral, 4 mg/kg, single dose).
For `CC(C)C[C@@H](NC(=O)[C@H](NC(=O)[C@H]1CCCN1)[C@H](C)O)C(=O)N[C@H](Cc1c[nH]cn1)C(=O)N[C@@H](C(=O)N[C@H](Cc1c[nH]cn1)C(=O)N[C@H](CC(N)=O)C(=O)N[C@H](CCCNC(=N)N)C(=O)N[C@H](CCCNC(=N)N)C(=O)N[C@H](CCCNC(=N)N)C(=O)N[C@H](CCCNC(=N)N)C(=O)N[C@H](CCCNC(=N)N)C(N)=O)[C@H](C)O`, the AUC(0-t) was 3340 ng·h/mL (beagle dog, plasma; oral, 20 mg/kg, single dose).
Under “treatment-emergent adverse event incidence”, `Cn1c(=O)oc2ccc(-c3ccc(CC(C#N)NC(=O)C4CNCCCO4)c(F)c3)cc21` (stereo not drawn) is recorded as 7.4% (item: mouth ulceration; human volunteers; oral, dose not given).

Repeated from above:
`COc1cc(NC(C)=O)c2c(c1O)-c1c(OC)c(OC)cc3c1C(C2)N(C)CC3` (stereo not drawn) has a remaining compound of 91.9 ± 1.1% (rat, processed plasma samples; 50 µg/mL, 24 h, room temperature, post-preparative storage).
With `OCc1cn(Cc2ccc(-c3noc(-c4ccc(OCC[18F])c(C(F)(F)F)c4)n3)cc2)nn1` the tracer uptake was 1.65 %ID/g (rat, heart; intravenous, 5 min).
For `CCCC[C@H](NC(=O)CNC(=O)CNC(=O)CN1CCN(CC(=O)O)CCN(CC(=O)O)CC1)C(=O)N[C@H]1CC(=O)NCCCC[C@@H](C(N)=O)NC(=O)[C@H](Cc2c[nH]c3ccccc23)NC(=O)[C@H](CCCNC(=N)N)NC(=O)[C@@H](Cc2ccccc2)NC(=O)[C@H](Cc2c[nH]cn2)NC1=O` [copper-64 labelled], the uptake ratio was 5.74 (female C57 mouse, B16/F1 melanoma; intravenous, 0.037 MBq, 24 h; baseline: tumour over kidneys).
The compound recovered of `CCc1noc(CC)c1C(=O)O[C@H]1C(C)=C[C@]23C(=O)[C@@H](C=C(CO)[C@@H](O)[C@]12O)[C@H]1[C@@H](C[C@H]3C)C1(C)C` is reported as no less than 95% (aqueous buffer; 16 h, pH 7.4, room temperature).
`Cc1[nH]nc2c1N=C(c1ccccc1Cl)c1cnc(N(CCO)CCO)cc1N2` has a urinary excretion of 0.19 %Dose (human male, urine; oral, 10 mg, 0-72 h).
